Literature values, collected from citations in different studies.
Each numbered part shows a few of the values that one paper quotes.

Set 1
SMILES: CN1CCN(C(=O)C(C)(C)c2ccc(C(=O)Nc3cn4cc(-c5ccncc5)ccc4n3)cc2)CC1
target	observed	IC50
CLK3 (human)	enzyme activity	110 nM
CLK1 (human)	enzyme activity	0.67 nM
CLK1 (human)	cellular activity	3.49 nM

Set 2 — organism: Toxoplasma gondii; observed: parasite growth; concentration: concentration not given
Structure (SMILES)	antiparasitic activity
CC[C@H]1OC(=O)[C@H](C)[C@@H](O[C@H]2C[C@@](C)(OC)[C@@H](O)[C@H](C)O2)[C@H](C)[C@@H](O[C@@H]2O[C@H](C)C[C@H](N(C)C)[C@H]2O)[C@](C)(OC)C[C@@H](C)C(=O)[C@H](C)[C@@H](O)[C@]1(C)O	active
COc1cc(Cc2cnc(N)nc2N)cc(OC)c1OC	active
COc1c(N2CCNC(C)C2)c(F)cc2c(=O)c(C(=O)O)cn(C3CC3)c12 (centres unmarked)	active
CCc1nc(N)nc(N)c1-c1ccc(Cl)cc1	active

Set 3 — cell line: MCF7; technique: microarray; concentration: concentration not given; reference: DMSO
Compound: CCCCCCCCNC(C)C(O)c1ccc(SC(C)C)cc1 (centres unmarked)
item	log2 fold change
TNFAIP3 mRNA	5.57
ZNHIT2 mRNA	1.05
TSC22D3 mRNA	1.49
TES mRNA	1.65
SLC7A11 mRNA	4.96
TRAF5 mRNA	0.54

Further values, each from its own experiment
SMILES	target	reference	endpoint	value
COc1ccc(CNc2c(CO)cnc3c(C4CC4)cc(C#N)cc23)cc1Cl	PDE4	IC50 PDE4 over PDE5	selectivity ratio	> 10

For quick reference, copied from above (set 3):
item	log2 fold change
TRAF5 mRNA	0.54
